Measurements of several laboratories.
Compare with care: the assays were run in different laboratories. ± marks the error that the study gave.
USP3 ZnF-UBD domain: Ubiquitin carboxyl-terminal hydrolase 3, ZnF-UBD domain (USP3, Homo sapiens, UniProt Q9Y6I4)
UniProt Q9Y6I4, sequence (whole entry, looked up): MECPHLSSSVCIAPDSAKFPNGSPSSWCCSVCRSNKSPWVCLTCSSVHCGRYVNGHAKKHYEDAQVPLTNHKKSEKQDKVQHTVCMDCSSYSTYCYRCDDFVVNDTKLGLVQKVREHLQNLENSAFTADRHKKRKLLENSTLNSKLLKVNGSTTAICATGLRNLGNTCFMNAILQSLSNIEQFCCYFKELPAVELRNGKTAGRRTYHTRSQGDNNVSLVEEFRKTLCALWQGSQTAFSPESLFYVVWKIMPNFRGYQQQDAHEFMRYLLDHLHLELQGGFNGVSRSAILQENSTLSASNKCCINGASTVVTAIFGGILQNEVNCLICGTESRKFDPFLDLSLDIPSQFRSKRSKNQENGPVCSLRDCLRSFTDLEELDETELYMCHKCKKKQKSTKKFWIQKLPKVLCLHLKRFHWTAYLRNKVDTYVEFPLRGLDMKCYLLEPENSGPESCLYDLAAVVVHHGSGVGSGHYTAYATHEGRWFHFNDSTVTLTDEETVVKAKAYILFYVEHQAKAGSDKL
uncharacterized protein: uncharacterized protein (Bos taurus, UniProt E1BM68)
Olfactory receptor: Olfactory receptor (Mus musculus, UniProt Q8VGQ8)
UniProt Q9LJE2, sequence (whole entry, looked up): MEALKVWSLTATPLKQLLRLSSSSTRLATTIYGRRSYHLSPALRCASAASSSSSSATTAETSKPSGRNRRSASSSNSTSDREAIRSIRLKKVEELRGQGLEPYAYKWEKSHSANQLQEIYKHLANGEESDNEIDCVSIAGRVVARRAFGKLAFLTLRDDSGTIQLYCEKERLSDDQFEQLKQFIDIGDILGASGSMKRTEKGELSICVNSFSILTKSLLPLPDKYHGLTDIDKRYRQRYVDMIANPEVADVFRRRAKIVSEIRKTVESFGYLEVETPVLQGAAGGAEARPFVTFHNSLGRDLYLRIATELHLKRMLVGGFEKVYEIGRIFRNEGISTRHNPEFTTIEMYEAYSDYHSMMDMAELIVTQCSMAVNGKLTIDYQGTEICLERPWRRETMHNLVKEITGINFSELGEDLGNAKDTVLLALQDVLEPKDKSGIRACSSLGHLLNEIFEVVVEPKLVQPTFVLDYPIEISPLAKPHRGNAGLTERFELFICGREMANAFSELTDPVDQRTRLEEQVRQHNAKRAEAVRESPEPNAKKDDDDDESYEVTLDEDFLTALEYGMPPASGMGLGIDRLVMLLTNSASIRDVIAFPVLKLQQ
UniProt P23204, sequence (whole entry, unmodified, looked up): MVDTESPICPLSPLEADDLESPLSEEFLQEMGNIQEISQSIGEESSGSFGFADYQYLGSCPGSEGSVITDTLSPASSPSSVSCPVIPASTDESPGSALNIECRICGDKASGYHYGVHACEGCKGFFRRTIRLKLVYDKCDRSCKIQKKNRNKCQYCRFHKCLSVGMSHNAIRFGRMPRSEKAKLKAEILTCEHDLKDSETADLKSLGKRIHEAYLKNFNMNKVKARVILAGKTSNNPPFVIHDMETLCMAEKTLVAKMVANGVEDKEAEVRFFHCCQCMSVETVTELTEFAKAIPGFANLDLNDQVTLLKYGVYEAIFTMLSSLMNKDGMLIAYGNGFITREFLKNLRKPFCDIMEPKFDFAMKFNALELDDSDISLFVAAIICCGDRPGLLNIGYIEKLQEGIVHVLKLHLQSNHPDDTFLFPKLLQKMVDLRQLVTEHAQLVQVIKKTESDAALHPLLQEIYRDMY
UniProt P02769, sequence (whole entry, looked up): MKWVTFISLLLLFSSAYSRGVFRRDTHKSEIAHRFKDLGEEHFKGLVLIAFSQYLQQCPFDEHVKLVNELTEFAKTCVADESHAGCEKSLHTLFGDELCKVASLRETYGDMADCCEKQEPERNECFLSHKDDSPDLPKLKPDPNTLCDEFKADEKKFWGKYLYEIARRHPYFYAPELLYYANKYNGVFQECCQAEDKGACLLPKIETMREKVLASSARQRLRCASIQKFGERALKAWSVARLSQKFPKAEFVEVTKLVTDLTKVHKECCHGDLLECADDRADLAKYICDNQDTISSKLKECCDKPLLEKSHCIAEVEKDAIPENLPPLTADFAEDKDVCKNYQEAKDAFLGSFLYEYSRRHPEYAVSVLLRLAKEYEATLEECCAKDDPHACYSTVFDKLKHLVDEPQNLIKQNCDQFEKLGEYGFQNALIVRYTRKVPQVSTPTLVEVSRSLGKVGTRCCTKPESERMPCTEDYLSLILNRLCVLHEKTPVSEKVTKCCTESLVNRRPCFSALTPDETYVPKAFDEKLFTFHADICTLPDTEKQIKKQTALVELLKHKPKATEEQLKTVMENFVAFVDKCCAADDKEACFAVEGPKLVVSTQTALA
UniProt P51532, sequence (whole entry, looked up): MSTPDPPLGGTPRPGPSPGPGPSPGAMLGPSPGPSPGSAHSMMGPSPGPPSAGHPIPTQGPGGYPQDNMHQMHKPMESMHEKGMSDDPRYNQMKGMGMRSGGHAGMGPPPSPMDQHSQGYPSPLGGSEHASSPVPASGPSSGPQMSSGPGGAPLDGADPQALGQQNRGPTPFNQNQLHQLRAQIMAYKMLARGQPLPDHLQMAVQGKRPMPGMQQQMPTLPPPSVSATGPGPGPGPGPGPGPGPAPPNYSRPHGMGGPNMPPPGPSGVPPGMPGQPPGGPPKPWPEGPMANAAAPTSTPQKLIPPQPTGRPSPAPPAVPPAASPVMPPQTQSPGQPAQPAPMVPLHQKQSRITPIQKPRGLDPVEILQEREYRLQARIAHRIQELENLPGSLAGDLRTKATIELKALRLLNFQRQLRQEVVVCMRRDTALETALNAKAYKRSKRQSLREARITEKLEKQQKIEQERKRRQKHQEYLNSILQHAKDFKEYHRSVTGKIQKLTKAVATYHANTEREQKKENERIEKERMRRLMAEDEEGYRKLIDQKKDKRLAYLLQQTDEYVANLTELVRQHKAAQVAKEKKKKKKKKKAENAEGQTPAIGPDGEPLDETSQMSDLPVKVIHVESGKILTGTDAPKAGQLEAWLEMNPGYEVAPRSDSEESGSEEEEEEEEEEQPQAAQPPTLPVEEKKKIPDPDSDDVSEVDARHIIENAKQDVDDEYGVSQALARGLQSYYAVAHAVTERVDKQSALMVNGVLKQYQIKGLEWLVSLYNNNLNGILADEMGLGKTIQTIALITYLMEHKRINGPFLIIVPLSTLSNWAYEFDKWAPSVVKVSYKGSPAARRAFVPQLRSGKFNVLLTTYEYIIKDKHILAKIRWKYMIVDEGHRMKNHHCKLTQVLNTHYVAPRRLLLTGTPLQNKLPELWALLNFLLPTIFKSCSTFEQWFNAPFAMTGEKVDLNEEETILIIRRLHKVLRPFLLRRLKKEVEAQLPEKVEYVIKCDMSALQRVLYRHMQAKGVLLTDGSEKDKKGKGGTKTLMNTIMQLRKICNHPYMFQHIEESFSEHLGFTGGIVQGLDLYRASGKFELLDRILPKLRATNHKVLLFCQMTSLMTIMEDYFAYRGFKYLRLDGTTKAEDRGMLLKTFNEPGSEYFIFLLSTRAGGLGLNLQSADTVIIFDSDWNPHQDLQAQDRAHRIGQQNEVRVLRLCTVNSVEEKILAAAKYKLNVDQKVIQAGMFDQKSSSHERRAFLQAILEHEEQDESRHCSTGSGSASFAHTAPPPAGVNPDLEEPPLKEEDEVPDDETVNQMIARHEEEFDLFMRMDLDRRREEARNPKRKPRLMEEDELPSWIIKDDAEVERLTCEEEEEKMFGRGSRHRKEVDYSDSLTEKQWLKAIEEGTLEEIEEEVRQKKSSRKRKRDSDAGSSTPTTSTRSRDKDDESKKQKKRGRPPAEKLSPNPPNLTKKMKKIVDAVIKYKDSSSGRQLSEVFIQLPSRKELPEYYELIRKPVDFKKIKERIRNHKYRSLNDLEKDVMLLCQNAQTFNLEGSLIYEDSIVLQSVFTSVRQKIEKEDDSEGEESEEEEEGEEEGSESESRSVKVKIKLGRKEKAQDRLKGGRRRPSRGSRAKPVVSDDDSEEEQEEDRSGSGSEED
UniProt P46098, sequence (whole entry, looked up): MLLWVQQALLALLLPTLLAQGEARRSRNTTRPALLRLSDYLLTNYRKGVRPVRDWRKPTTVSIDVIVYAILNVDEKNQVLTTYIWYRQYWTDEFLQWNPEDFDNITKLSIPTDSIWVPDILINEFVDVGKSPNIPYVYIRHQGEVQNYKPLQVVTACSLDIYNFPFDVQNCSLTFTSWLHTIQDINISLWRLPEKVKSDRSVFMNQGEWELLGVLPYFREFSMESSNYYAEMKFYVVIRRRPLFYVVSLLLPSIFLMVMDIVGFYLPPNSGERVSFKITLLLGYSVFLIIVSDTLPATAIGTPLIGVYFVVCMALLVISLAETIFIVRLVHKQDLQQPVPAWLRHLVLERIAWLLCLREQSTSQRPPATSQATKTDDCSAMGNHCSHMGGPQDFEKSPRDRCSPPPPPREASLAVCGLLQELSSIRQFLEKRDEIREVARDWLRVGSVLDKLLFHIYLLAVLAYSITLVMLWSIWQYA
UniProt Q8N884, sequence (whole entry, looked up): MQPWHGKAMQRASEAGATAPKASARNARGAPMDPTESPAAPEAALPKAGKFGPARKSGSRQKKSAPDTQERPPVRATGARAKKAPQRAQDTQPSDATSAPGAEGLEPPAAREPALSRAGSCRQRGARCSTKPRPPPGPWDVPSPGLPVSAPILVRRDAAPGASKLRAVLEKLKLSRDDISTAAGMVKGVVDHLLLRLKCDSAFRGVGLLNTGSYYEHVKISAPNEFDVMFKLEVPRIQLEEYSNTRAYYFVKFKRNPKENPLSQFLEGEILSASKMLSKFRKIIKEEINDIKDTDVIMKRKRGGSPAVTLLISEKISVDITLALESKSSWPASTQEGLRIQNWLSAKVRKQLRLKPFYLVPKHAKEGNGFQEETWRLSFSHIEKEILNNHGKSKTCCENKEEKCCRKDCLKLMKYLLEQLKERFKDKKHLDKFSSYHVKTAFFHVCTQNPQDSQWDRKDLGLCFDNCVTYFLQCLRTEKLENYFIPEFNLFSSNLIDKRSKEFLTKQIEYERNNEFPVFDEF

Structure (SMILES)	target or system	test	system	setting	measurement	value
Cc1nn(-c2nc3ccccc3[nH]2)c(O)c1C(c1ccccn1)c1c(C)nn(-c2nc3ccccc3[nH]2)c1O	Cyclic GMP-AMP synthase, catalytic domain; with DNA (CGAS, Homo sapiens, UniProt Q8N884)	cGAS-DNA condensate disruption		concentration not given, together with: Cy3-labelled DNA	EC50	7.4 ± 0.9 µM
O=C(O)CCn1cccn1	USP3 ZnF-UBD domain				Kd	> 1000 µM
CCn1c(-c2nc3cc(C(=O)N4CCC[C@@H](N)C4)cc(OC)c3n2C)cc2cccnc21	HTR3A (Homo sapiens, UniProt P46098)	intracellular calcium, antagonist, fluorescence			IC50	6.31 µM
CCCOc1ccc(OC)c(F)c1C(=O)c1ccc(C(=O)N[C@@H]2CNC[C@H]2NC(=O)c2ccc3[nH]ncc3c2)cc1	AMPK (rat)	kinase activity		10 µM	remaining activity	2%
Cc1ccc(C(=O)O)cc1S(=O)(=O)Nc1cccc(C(=O)CCC(=O)O)c1	USP3 ZnF-UBD domain				Kd	283 µM
Cc1cnc(C)cn1	uncharacterized protein	cAMP level, agonist, cAMP luminescence	HEK293 cells		EC50	1190 ± 195 µM
CCCCCC/C=C\CCCCCCCC(=O)O	Ppara (Mus musculus, UniProt P23204, F272I)				Ki	0.022 ± 0.003 µM
O=C(NCCc1cccnc1)c1ccc([C@H]2[C@@H](F)[C@@H](F)C[C@@H](F)[C@H]2F)cc1		liver microsome stability	human liver microsomes	1 µM, without NADPH	hepatic clearance	3.9 mL/min/kg
Cc1ncsc1-c1ccc([C@H](C)NC(=O)[C@@H]2C[C@@H](O)CN2C(=O)[C@@H](NC(=O)CCCCCC(=O)N2CCC3(CC2)CCN(c2cncc(Nc4ncc(Cl)c(-c5cccc(-c6ccccc6)c5)n4)c2)C3=O)C(C)(C)C)cc1	PIP4K2C (Homo sapiens, UniProt Q8TBX8)	degrader, immunoblot	HAP1	6 h	DC50	0.361 µM
CC[C@@H]1[C@H](F)C(=O)N[C@@H]1COc1nccc2cc(C(N)=O)c(OC)cc12	CAMK1 (Homo sapiens, UniProt Q14012)	ATP-site binding, ActivX KiNativ profiling	THP-1 cell lysate	Lys1 CaMK1a probe site	IC50	> 5 µM
CCc1nccnc1CC	Olfactory receptor	cAMP, agonist	HEK293 transfected with Olfactory receptor		EC50	776 ± 19.1 µM
O=C(O)Cc1nc2ccccc2[nH]1	USP3 ZnF-UBD domain				Kd	> 1000 µM
N#C[C@@]12C[C@@H]1[C@@H](n1cnc3c(NC4CCCC4)nc(I)nc31)[C@H](O)[C@@H]2O	5-hydroxytryptamine receptor 2B (Mus musculus, UniProt Q02152)	antagonist, Gq dissociation BRET		mouse receptor	Kb	0.338 µM
N#Cc1c2n(c3c(=O)n(CC(=O)O)cnc13)CCCC2	USP3 ZnF-UBD domain				Kd	603 µM
CCc1cnc(C)c(C)n1	Olfactory receptor	cAMP, agonist	HEK293 transfected with Olfactory receptor		EC50	334 ± 50.7 µM
Nc1nnc(-c2ccccc2O)cc1N1CC2CCC(C1)N2c1ccnc(F)c1	SMARCA4 (Homo sapiens, UniProt P51532)	degrader, immunofluorescence	SW1573		DC50	> 1 µM
Cc1cc(NC(=O)CCC(=O)O)nn1C	USP3 ZnF-UBD domain				Kd	201 µM
C[C@H](N)C(=O)N[C@@H](Cc1c[nH]c2ccccc12)C(=O)O	Peptide transporter PTR2 (PTR2, Saccharomyces cerevisiae, UniProt P32901)				Ki	39 µM
Cc1cnc(C)c(C)n1	uncharacterized protein	cAMP level, agonist, cAMP luminescence	HEK293 cells		EC50	174 ± 22.4 µM
O=C(Nc1ccc(C2CCCCC2)cc1)[C@H]1CC1(F)F		liver microsome stability	human liver microsomes	1 µM, without NADPH	hepatic clearance	7.1 mL/min/kg
O=C(O)CCc1ccno1	USP3 ZnF-UBD domain				Kd	> 1000 µM
CCCCCCCCCCCCCCCCCCc1ccc(O)cc1	Albumin (ALB, Bos taurus, UniProt P02769)	modified Stern–Volmer	PBS	37 °C	Kb	19500 µM
O=C(O)CCc1ccc2c(c1)OCO2	USP3 ZnF-UBD domain				Kd	> 1000 µM
Nc1nsc(C(=O)NCC2CCCCC2)c1C#Cc1ccccc1	Lysine--tRNA ligase, chloroplastic/mitochondrial (OVA5, Arabidopsis thaliana, UniProt Q9LJE2)	enzyme activity, inhibitor			IC50	> 100 µM
